Measurements from different studies.
Each line is one published result; not all experiments were run side by side.
Matrix: plasma
Route: oral

SMILES	host	dose	notes	AUC
CCN1C(=O)CNc2ncc(-c3ccc(-c4nc[nH]n4)nc3C)nc21	human	25 mg	patients	1720 ng·h/mL
Cc1ccc(-c2cc(C(F)(F)F)nn2-c2ccc(S(N)(=O)=O)cc2)cc1	human	100 mg	single dose, fasted	3090 ng·h/mL
CNCc1ccc(-c2[nH]c3cc(F)cc4c3c2CCNC4=O)cc1	human	300 mg	single dose, fasted	5320 ng·h/mL
Nc1ccc(-c2nc([C@H]3CCc4cc(-c5cc(Cl)ccc5-n5cnnn5)cc(=O)n43)c(F)[nH]2)c(F)n1	human	80 mg	single dose, fed	8630 ng·h/mL
C[C@@H](N)c1cc(Cl)ccc1Cn1c(=S)[nH]c(=O)c2[nH]ccc21	human	10 mg	multiple doses, once daily, healthy volunteers	1.08 µM·h
C[C@H](N)C(=O)N1C[C@H](CCCB(O)O)[C@](N)(C(=O)O)C1	human	50 mg twice daily	multiple doses, steady state, patients	8480 ng·h/mL
CN1C(=O)[C@@H](NC(=O)c2nnc(Cc3ccccc3)[nH]2)COc2ccccc21	male human	60 mg twice daily	multiple doses	3170 ng·h/mL
COc1cc(C(=O)NC2CCN(C)CC2)c(F)cc1Nc1ncc(C(F)(F)F)c(Oc2cccc3c2C(=O)N(C)C3)n1	human	200 mg once daily	multiple doses, steady state, patients	36.8 µM·h
O=C(O)COC[C@H]1CC[C@H](COC(=O)N(c2ccccc2)c2ccc(Cl)cc2)CC1	human	40 µg	multiple doses, twice daily, steady state	25.5 ng·h/mL
CCn1c(C(=O)c2cc(C)cc(C#N)c2)c(C(C)C)c(=O)[nH]c1=O	human	75 mg	multiple doses, once daily, steady state, healthy volunteers	3700 ng·h/mL

Repeated from above:
SMILES	host	dose	notes	AUC
O=C(O)COC[C@H]1CC[C@H](COC(=O)N(c2ccccc2)c2ccc(Cl)cc2)CC1	human	40 µg	multiple doses, twice daily, steady state	25.5 ng·h/mL
